Measured values pooled from the literature.
Numbered parts are unrelated; each lists some results of a single study.

Series 1
Target: RNA binding protein fox-1 homolog 2, RRM domain, GST-SBP tag (RBFOX2, Homo sapiens, UniProt O43251-10, residues 100-194)
Technique: RNA Bind-n-Seq
Molecule type: RNA
Sample: in vitro
Concentration: 365 nM
Setting: natural RNA segment, single round, ends assumed
Reference: no-protein control
Direction: higher = stronger binding
Target sequence (chain): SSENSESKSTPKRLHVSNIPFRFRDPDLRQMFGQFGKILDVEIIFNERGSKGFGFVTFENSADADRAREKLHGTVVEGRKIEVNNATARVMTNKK
| Sequence | RBNS enrichment (R) |
| --- | --- |
| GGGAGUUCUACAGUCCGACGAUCGGGCCACAGGGUCAGAUGAGGGCUGCCUUUCGCUGCUGUGAACACUUACAGUACACCUGACUUGGAAGACCCUUUUGAGUUCAAGGCAGAGUGUGCAAUGUUGAAAUGGAUGGAAUUCUCGGGUGCCAA | 0.35 |
| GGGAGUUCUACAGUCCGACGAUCCAGGUCACUCUCCCGAUCUCCCUACUACCAGCCAGGUGCUGUUUCCUUCUGAGCUGUGGAGAUCACACCAUCCUGUCGCCCUGCAAAUAAUUGUGGAUCAUUUACCUUGAUGGAAUUCUCGGGUGCCAA | 0.384 |
| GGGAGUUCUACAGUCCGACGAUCGAUACUUUUAAUUUACAAAGUAAUUUUGUUUUAUGUUUUAAAGUGUAAAUUAAAAAUGCUUUAGUUUACCUGGCAUUUGGGUAUGCUCAGUAAUGCCUGCCAGCAGCACCUGGAAUUCUCGGGUGCCAA | 0.705 |
| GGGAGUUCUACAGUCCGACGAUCCCCCUUCCCGUCUGCCCUGUGUCCUCACUGCGUGUGGGUAUGACCUCUGCCUGGUGGCUGGUGUAUCCCAACUGGGCAAGAGAUGGCAGAGGGUCCCCCUUGUGGGUGCGUGGAAUUCUCGGGUGCCAA | 0.311 |
| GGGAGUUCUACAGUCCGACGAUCUGGGGUGCCCUCCACUGCCCUCUGUUCAGUAACAGGGCCUUGCUAAUCGGGUUGUCACUCAACAAAAGUGCUUUGGAUUUAAGUUACUAUCCUGGCUUUGCCCAACCUCAUGGAAUUCUCGGGUGCCAA | 0.307 |
| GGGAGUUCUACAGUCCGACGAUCCACUUUAUUCUAUGGCUAGAAAGUCAGUGGAAAGUAAAUGUGCCAAACUCACUUGUCAGAACACACGAGCAGAUGGCAGAGUCCUCCUCCCCAGCAGGAACAAACGGCAUUGGAAUUCUCGGGUGCCAA | 0.458 |
| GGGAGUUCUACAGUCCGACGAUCACCUGGCACAGUUUUCUCUGAACUCUGGAAGACUUCUGAUGGGUGGUGUUCAGCUUCGACAAAGAUGACGUUUUCUGAGAACUUAGUCCGUCCGUACCCAGCUAACCUCUUGGAAUUCUCGGGUGCCAA | 0.247 |
| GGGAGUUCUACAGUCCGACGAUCCAUGCUUUUAUCCUGAGAAACCUGGACCCUUAGGCUCUGACUAACAAAGACAGUUCAGCUCCAGACACUGAACUUGGAAUCCUUUGUCUUUGGAUUAAAAGUCAUAAACUUGGAAUUCUCGGGUGCCAA | 0.359 |
| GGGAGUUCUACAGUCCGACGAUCAUUGUCCUGUGUUUUUAUAGCACCCAAAUCAUUCUAAAAUAUGAACAUCUAAAAACUUUGCUAGGAGACUAAGAACCUUUGGAGAGAUAGAUAUAAGUACGGUCAAAAAAUGGAAUUCUCGGGUGCCAA | 0.531 |

Series 2
Target: RING finger protein unkempt homolog, zinc fingers 1-6, GST-SBP tag (UNK, Homo sapiens, UniProt Q9C0B0, residues 30-357)
Technique: RNA Bind-n-Seq
Molecule type: RNA
Sample: in vitro
Concentration: not given
Setting: RNA with constant flanks, ends assumed
Reference: input RNA pool
Direction: higher = stronger binding
Target sequence (chain): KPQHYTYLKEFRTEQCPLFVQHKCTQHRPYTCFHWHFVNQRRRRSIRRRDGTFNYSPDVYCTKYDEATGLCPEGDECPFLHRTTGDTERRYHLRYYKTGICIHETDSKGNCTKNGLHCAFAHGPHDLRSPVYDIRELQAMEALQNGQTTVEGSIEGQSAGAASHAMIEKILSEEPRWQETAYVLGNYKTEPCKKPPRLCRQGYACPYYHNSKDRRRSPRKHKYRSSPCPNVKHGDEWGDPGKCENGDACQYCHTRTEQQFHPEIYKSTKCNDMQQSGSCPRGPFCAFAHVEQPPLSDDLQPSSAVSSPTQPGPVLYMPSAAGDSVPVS
| Sequence | bound/input enrichment [ratio] |
| --- | --- |
| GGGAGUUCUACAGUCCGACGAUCCGUGAUGAGGAAGUAAGCUCUGCUGAUAUAAGUAGUUCAUCUGAGGUAAUAUCACAGCAUCCCGUAUCUUACAGAAAUAUUGAAGAGCUUCAACAACAAAAUCAACGUCUCUUAGUGGCCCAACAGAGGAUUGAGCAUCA | 0.229 |
| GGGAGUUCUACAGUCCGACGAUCAAGUGGUUGCUGCAGAAAGACAAAGACAGGAGGAAGGAGGUUAAACUGAACGAGCGCAUUACCGCUACUUCCCAAGGACUACUGAUUCGCUCUGUUCAAGAUUCUGACCAAGGACUCUACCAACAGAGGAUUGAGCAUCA | 0.223 |
| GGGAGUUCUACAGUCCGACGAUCACACCCUGGUUCUGGGCCAGAGAUAAAACCAAUACCUGGUCUGGGCCCAGGGAAGAUCCCAACCGCAGGUCCAGGUUUAGGUCUAAGAAAGAAGUCUAUGUUGAAUCAAGUUCUGGAUCUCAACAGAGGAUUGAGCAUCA | 0.0934 |
| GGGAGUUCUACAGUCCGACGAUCUACAACAUGGCUUCUGUCGACUUUGAUGGCUUCUUUGCAGCCUUUCUUCCAGAGUUCCUGACCCGCUGUGAUGGUGUGGAUGCCAAUCAGAAAAACGUUCUGGGGCGGAAUUUCAAGAUGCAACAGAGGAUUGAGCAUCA | 0.163 |
| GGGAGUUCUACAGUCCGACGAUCCUACUAGUUCAUGGGUCUUUGGCUUUUCCUUUGGGGCUAGAUACCUACCAUGGCUGUGUGACCGCUGCAGCUCGCUAUGGCCGGGGUCGGGUAGUUGUAACUGGUCAUAAGGUUUUAUUUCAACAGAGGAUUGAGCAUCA | 0.218 |
| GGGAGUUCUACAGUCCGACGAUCUUAAUGUUCUUAAUAAAGUGUUCUUGGAGUUUAACCUAGCAGCGGAUGGCUUUCUUCCGCUCCGCCCAGUUUCCAGGGAAGCAUUGUUUUUUCCAGGCUGUAAAAUGGCAGAAUCUCCUGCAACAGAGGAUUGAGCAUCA | 0.283 |
| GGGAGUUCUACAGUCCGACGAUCUUGACAUUACAGCCAAAAUGGUGCUGUCCCAGAGACAACGAGAUGAACUAAAUCGAGCUACCGCAGAUUAUCUUCGUUCAAAUGGCUAUGAAGAGGCAUAUUCCGUUUUUAAAAAGGAAGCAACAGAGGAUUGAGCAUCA | 0.188 |
| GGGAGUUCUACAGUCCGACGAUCAUGGAUGACAAGGCCUCUGUUGGAAAAAUCAGUGUCUCAUCAGACUCAGUGUCUACUCUUAACCGUGAAGAUUUUGUCUUGGUUUCCAGGCAAGGAGAUGAGACACCAUCUACAAAUAAUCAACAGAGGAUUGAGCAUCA | 0.224 |
| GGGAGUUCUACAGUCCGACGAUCUUUGGUAAUGAAUAAAUUCUGCUAGUGGUAUAUGUUGAUCUGAACUUACAAUGAUGGGAUACCGAAUUGGCAGAGUGGCAGAUGUUCACAAUUGUCUACAAGUAGAUGUGCUAGACAAUGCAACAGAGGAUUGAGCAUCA | 0.41 |
| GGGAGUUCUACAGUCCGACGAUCGAUAGAUUGACGUGUAGAGACUGUCAACUUUUGGAGCACAAAGAACAUAGGUAUCAGUUUUCCGAAGAGGCUUUUCAAAAUCAGAAAGGUGCAAUUGAAAAUCUGUUGGCUAAGCUUCUUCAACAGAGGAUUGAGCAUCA | 0.199 |
| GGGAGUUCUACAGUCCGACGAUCUUACAACUCAGAUUUUAUUUAUUUUGAAAUUAUCAAUUGUAUAAAUCUAAUUUAUUACCAAACCGGGUCUUUUAAAAAAUAUUUUUAUCGUUGAAACCUUGACAGGUACUUCAUAUUCUUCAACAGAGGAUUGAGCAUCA | 1.47 |

Series 3
Target: Ras GTPase-activating protein-binding protein 1, full length (G3BP1, Homo sapiens, UniProt Q13283)
UniProt Q13283, sequence (whole entry, looked up): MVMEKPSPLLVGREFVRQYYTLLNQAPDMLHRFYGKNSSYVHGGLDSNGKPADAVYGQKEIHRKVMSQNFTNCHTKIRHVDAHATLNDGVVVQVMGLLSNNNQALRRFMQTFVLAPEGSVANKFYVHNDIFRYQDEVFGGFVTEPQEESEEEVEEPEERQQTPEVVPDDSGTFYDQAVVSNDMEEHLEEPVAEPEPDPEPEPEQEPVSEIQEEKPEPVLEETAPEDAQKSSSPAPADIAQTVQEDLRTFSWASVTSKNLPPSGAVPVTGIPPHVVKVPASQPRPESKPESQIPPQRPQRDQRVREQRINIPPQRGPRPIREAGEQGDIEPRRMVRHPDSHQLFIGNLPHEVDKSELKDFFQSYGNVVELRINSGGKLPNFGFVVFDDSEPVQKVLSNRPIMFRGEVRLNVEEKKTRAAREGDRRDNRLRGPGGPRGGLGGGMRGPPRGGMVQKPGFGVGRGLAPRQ
Technique: RNA Bind-n-Seq
Molecule type: RNA
Sample: in vitro
Concentration: 200 nM
Setting: whole 134-nt RNA, ends assumed
Together with: 150 mM LiCl
Reference: input library
Direction: higher = stronger binding
Library: 7-deaza-guanosine replaces G
| Sequence | log2 enrichment |
| --- | --- |
| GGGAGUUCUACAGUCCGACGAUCUGGGAGGUGGAUUUUGUUUAUUUUUUUAGCUCAUUUCCAUGGGUGGGAAUUUUUUUUUAAUAUGUGUCAUGAAUAAAGUUGUUUUUGAAAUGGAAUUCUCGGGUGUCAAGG | -0.092 |
| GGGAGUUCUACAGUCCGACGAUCGCAGGAAGUAAAAACAAAUGGAAAUGCUUCGGAUAAUGGCAGGGGUGGGGGUUGCUAAGGAAAGGGUGGGAUGGGAGUGGGUAAAGAGUUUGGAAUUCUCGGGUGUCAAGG | -0.0908 |
| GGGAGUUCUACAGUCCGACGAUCCCUCAAGUCCUGUGCUACACAUCGUAUGUACCGAAUCGGAGGUUUGGAAAGGAAAGUAUUAUGUUACGCCGUUCGGAUCUGCACUUCCAGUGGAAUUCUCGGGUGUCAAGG | -0.415 |
| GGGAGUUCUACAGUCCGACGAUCCACAGAGAACACGCACCCACACAGACACAGAGGGAAGGGGUUGGGAUGGGGACAGGGUGCACAGCAGGGCGGGGUAGGACCCCAGCCCCUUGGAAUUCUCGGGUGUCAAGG | 0.578 |
| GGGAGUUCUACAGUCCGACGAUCCUGUGCUACACAUCGUAUGUACCGAAUCAAACCCCCCCAAAUUUUUUUAAACCCCCCCAAAAAAGUAUUAUGUUACGCCGUUCGGAUCUGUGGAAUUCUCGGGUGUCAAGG | 1.05 |
| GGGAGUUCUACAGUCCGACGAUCUCCUGUGCUACACAUCGUAUGUACCGAAUCGGGUUUUUGGGGUUUUUGGGGUUUUUGGGGAAAGUAUUAUGUUACGCCGUUCGGAUCUGCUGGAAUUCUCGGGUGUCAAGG | -0.0202 |
| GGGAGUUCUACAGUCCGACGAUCGUCCUGUGCUACACAUCGUAUGUACCGAAUCGGGGCCCCGGGGCCCCGGGGCCCCGGGGAAAGUAUUAUGUUACGCCGUUCGGAUCUGCAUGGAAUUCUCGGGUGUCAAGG | -1.89 |
| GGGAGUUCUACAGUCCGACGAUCUCCUGUGCUACACAUCGUAUGUACCGAAUCGGGAAAAAAGGGAAAAAAGGGGAAAAAAGGAAAGUAUUAUGUUACGCCGUUCGGAUCUGCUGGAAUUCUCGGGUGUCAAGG | -0.267 |
| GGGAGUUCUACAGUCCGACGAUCACCAUGCAGGUGGGCAUCUUUGGGAAGUGGGGCAAGGGGGGGAUAGGGAGGGGGGUAACACUUUGGGAACAGGUGGUCCCAGGUCGUUUGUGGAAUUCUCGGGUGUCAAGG | 0.0577 |
| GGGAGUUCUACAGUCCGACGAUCCAAGUCCUGUGCUACACAUCGUAUGUACCGAAUCGGGGAAGGGAAGGGGAAGGGGAAAGUAUUAUGUUACGCCGUUCGGAUCUGCACUUCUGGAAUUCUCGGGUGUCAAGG | 0.000699 |
| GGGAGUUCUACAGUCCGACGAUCGGCUGCUGGAGUGCCGUGAGCAGGCCGCGGGAACGUCGCCGUCACCUUGUCUCGGGGCCUCGGCGCUGCUUCCCGCCAAAACACGUUUACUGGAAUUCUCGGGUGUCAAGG | -0.189 |

Series 4
Target: Histone acetyltransferase KAT6A, winged helix 1, GST fusion (KAT6A, Homo sapiens, UniProt Q92794, residues 1-85)
Technique: protein binding microarray
Molecule type: double-stranded DNA, one strand shown
Sample: in vitro
Concentration: not given
Setting: 8-mer, flanks averaged, mean of 2 arrays, mostly near background
Reference: not given
Direction: higher = stronger binding
Residues (chain): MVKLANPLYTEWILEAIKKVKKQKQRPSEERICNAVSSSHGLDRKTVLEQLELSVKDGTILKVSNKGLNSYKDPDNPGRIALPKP
| Sequence | E-score |
| --- | --- |
| CAACTCGA | -0.283 |
| CCGGACCG | 0.205 |
| AACGATGC | -0.0488 |
| ACTGGGCG | 0.0575 |
| ATATGGCC | 0.0452 |
| CCTTTCTC | -0.205 |
| CTGTGACC | 0.0236 |
| CGCGAAGC | 0.255 |
| GTCCTCAA | -0.232 |
| GACAAATC | -0.0412 |
| GCCGGGAC | 0.339 |
| AGATCTTA | -0.118 |
| AACTTCGT | -0.1 |
| ATCATCAC | -0.206 |
| CCTGAAGC | -0.0576 |
| ATACAACC | 0.21 |
| ACGCTGGA | 0.115 |
| AACTGCCA | -0.156 |
| ATAGACTG | -0.0943 |
| ACGCTTGG | 0.047 |
| CGCCCGCC | 0.436 |
| GACTTGCA | -0.148 |
| ATGCAACG | -0.0119 |
